Published values gathered from unrelated publications.
Compare with care: the assays were run in different laboratories. Values joined by “and” are separate records of one study, mostly repeats; a detail may differ.
Target: Calcium/calmodulin-dependent protein kinase type II subunit beta (CAMK2B, Homo sapiens, UniProt Q13554)

| SMILES | assay | test system | setting | how to read | quantity | result |
| --- | --- | --- | --- | --- | --- | --- |
| Cc1cccc(O[C@H]2CCC[C@@H](C(C)CNCc3ccncc3)C2)c1 (relative stereo) | enzyme activity, inhibitor |  | 10 µM |  | inhibition | 5% |
| COc1cc(Nc2nccc(-c3cnn4nc(OC)ccc34)n2)cc(C(F)(F)F)c1 | binding, competition with immobilised ligand |  | 1 µM |  | remaining binding | 100% |
| CC(C)=CC1OC(C)(C)C2C=C3C(=O)C(Cl)=CC(O)C3C3C(O)C4OC4C(=O)C132 (stereo not shown) | cell-free assay, competition with immobilised ligand |  | 10 µM |  | remaining binding | 61% |
| CN1CC[C@@H](COc2cnc(C#N)cc2-c2ccn3nc(NC(=O)C4CC4)cc3c2)C1 | enzyme activity, inhibitor |  | 1 µM |  | inhibition | -1% |
| N[C@H]1CC[C@H](Nc2nccc(-c3cccnc3Oc3ccc(NC(=O)NC4CC4)c4ccccc34)n2)CC1 | kinobead competition pulldown | HEK293/HCT116 lysate mixture | 10 µM, 1 h, 4 °C | lower = stronger competition | log2 LFQ intensity | 23.9 and 24.2 and 24.3 and 24 |
| CNC(=O)C[C@H](Cc1ccc(C#N)cc1)NC(=O)c1cc(-c2ccc(CN[C@H](C)c3ccc(C)cc3)o2)ccc1Cl | enzyme activity, inhibitor |  | 1 µM |  | activity vs control | 75% |
| O=C(Cc1ccc(OCc2ccccc2)cc1)NC1(C(=O)O)CCN(C(=O)c2ccc(-c3cccc(Cl)c3)cc2)CC1 | enzyme activity, inhibitor |  | 10 µM |  | activity vs control | 96% |
| CN1CCN(Cc2ccc(-c3ccc(CO[C@H]4CCC[C@@H]4NC(=O)c4cc(-c5cnn(C)c5)cnc4N)cc3)cc2)CC1 | enzyme activity, inhibitor |  | 0.1 µM |  | inhibition | 3% |
| C=CC(=O)N1Cc2nc(-c3cc(-c4cc(Cl)cnc4Cl)c(F)cc3F)n(-c3ccncn3)c2C1 | cell-free assay, inhibitor |  | 1 µM |  | inhibition | 1.6% |
| CNC(=O)C1CCN(c2cc(C)c(F)cc2NC(=O)c2ccc(-c3cc(O)ccc3C)c(C)c2)CC1 | binding, competition with immobilised ligand |  | 1 µM |  | remaining binding | 100% |
| CNC1C[S+]2CC[S+]3CC[S+](C1)[Ru-4]321([N]=C=S)[n]2c3ccc(OC)cc3c3c4c(c5cc(F)c[n+]1c5c32)C(=O)NC4=O (stereo not shown) | KinomeScan |  | 0.1 µM | relative to: untreated | remaining binding | 71% |
| Cc1cnc2nc1Nc1cccc(c1)COC/C=C/COCc1cc(ccc1OCCN1CCOCC1)N2 | binding |  | 0.1 µM |  | remaining binding | 96% |
| C=CC(=O)N1CCc2ccc(-n3c(=O)ccc4cnc5ccc(-c6cnn(C)c6)cc5c43)cc21 | KINOMEscan |  | 1 µM | relative to: DMSO control | remaining binding | 91% |
| NC(=O)[C@@H](O)C[C@H]1CCc2sc3ncnc(O[C@H]4CC[C@H](N5CCOCC5)CC4)c3c21 | enzyme activity, inhibitor |  | 10 µM |  | inhibition | 28% |
| CCn1cc(C(=O)O)c(=O)c2c(N)c(F)c(NC3CCCCC3)cc21 | kinase activity |  | 0.1 µM, with: ATP at Km |  | inhibition | -9.5% |
| C=CC(=O)Nc1cccc(-c2cnc3[nH]cc(C(=O)NC(C)(C)C)c3n2)c1 | kinase activity |  | 0.1 µM |  | inhibition | 3% and 0% |

Repeated from above:
| SMILES | assay | test system | setting | how to read | quantity | result |
| --- | --- | --- | --- | --- | --- | --- |
| CCn1cc(C(=O)O)c(=O)c2c(N)c(F)c(NC3CCCCC3)cc21 | kinase activity |  | 0.1 µM, with: ATP at Km |  | inhibition | -9.5% |
